Results gathered from unrelated publications.
Parts stem from different laboratories: compare values within a part only. Substitutions count along the parent as printed.

Series 1
Target: RING finger protein unkempt homolog, zinc fingers 1-6, GST-SBP tag (UNK, Homo sapiens, UniProt Q9C0B0, residues 30-357)
Technique: RNA Bind-n-Seq
Form: RNA
Matrix: in vitro
Tested at: not given
Setting: RNA with constant flanks, human and mouse sites, ends assumed
Reference: input RNA pool
Direction: higher = stronger binding
Measurement: bound/input enrichment
Shared flanks, not repeated: GGGAGUUCUACAGUCCGACGAUC … CAACAGAGGAUUGAGCAUCA
Residues (chain): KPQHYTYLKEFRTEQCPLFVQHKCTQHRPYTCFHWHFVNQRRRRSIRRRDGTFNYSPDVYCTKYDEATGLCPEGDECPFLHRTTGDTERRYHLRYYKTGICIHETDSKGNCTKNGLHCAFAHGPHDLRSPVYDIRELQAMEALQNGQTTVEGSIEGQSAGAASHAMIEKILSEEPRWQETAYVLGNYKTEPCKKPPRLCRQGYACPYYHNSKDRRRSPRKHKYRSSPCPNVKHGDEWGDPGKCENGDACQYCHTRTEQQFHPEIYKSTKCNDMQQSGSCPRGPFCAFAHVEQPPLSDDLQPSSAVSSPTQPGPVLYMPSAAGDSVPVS
ACAAAUCUCAAUCCUGAUCUUAUCACACCACAUGGGCUUUUUAUCCUAUUUGGAGUCUAUGGUGAUGUACAUCGAGUGAAGAUUAUGUUUAAUAAGAAAGAAAAUGCCUUGGUUCAGAUG: 0.158 ratio
GAGCAGGGUGACAUGGCUGGCAAUUCUGCUUUAUAAAAUCGUGUCUCUAAAACUGUGUUCAUGUGUCUAGGAAGUAUUUAAUAAACUUGUGUAGAAACUUUUUGUGGUUGGGCCCUGGGA: 2.2 ratio
CCAGCUUCAGUUACGCUGUGUAAAGUUUCAAGAGAGUAAUGACAAGACUCAGCUUAUCUUUGGCUCUGUCACCAACAUACAUGCAAAAGAUGCAGCCCCAGUGGAGAAGAUACACACCAU: 0.162 ratio
GGCCAGAGCCUGAACAGACUCUUUCAGGAAGUACCGAAACGAAGAAAUGGGUCUGAAGGUAACAUCACUACCCGGAUCCGAGCAUCUGAGACUGGUUCUGAUGAAGCCAUCAAGUCCAUC: 0.062 ratio
AAGCUCUUCAGAGAAGUAAGAAUAAUGAAGAUUUUAAAUCAUCCCAAUAUAGUGAAGUUAUUCGAAGUCAUUGAAACUGAAAAAACACUCUACCUAAUCAUGGAAUAUGCAAGUGGAGGU: 1.24 ratio
GAUGUAUAUUUUGAAUAUGAAGAAAAAAUAAUGAGCAAAACUACUCUGGAUAAAUCUCUUCUAGAUAUAAUAUCAGACCCUGAUGCAGGAACUCCAGAAGAUAAAAUGAGGUUGUUUCUU: 0.492 ratio
CCAUGGUUGGUUGAAUCUGGAUGUGGAACCCGCUGACGUGGAUGGCUGACUGUAUUGCAGAACUGGGGCUCCCUUGCAUCUUCCAGUUACAAAUUCAGUGCCUUCUGCAGUUUCCCCAGA: 0.162 ratio
CUCAAGAACCCCCACUUCAUCUUUGACGUGCAUGUCCACGAGGUGGUGGACGCCUCGCUGUCAGUCAUCGCGCAGACCUUCAUGGAUGCCUGCACGCGCACGGAGCAUAAGCUGAGCCGC: 0.0714 ratio
GCUGCCAUGGCUGCAAGACCUCAUUCAAUUGAUGGGAGAGUAGUUGAGCCAAAACGUGCUGUAGCAAGAGAGGAAUCUGGAAAACCAGGGGCUCAUGUAACUGUGAAGAAGCUGUUUGUU: 0.21 ratio
GUAGAAUUUUGUCAUCCUGAAGACCAACAACUUCUAAGAGACAGCUUUCAGCAGGUGGUGAAAUUAAAAGGUCAGGUGCUGUCCGUCAUGUUCCGAUUCCGAUCUAAGACCCGAGAAUGG: 0.128 ratio
AAGGGAGAUUAUUUCCGGUAUCUUGCUGAAGUAGCUUGUGGCGAUGAUCGAAAACAAACAAUAGAAAAUUCCCAAGGAGCCUACCAAGAGGCGUUUGAUAUAAGCAAGAAGGAGAUGCAG: 0.556 ratio

Series 2
Target: Histone acetyltransferase KAT6A, winged helix 2, GST fusion (KAT6A, Homo sapiens, UniProt Q92794, residues 85-181)
Technique: protein binding microarray
Form: double-stranded DNA, one strand shown
Matrix: in vitro
Tested at: not given
Setting: 8-mer, flanks averaged, mean of 2 arrays, mostly near background
Reference: not given
Direction: higher = stronger binding
Measurement: E-score
Residues (chain): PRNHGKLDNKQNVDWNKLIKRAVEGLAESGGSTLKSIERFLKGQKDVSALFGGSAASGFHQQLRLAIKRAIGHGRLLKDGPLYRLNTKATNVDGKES
ATATCCTC: 0.0191
AGACGAGA: -0.135
AGGCTACG: -0.0824
ATACAACG: -0.106
GAAAACAA: 0.117
CTGCGCAG: 0.129
TACATATA: 0.0517
CCTTCGGC: 0.0394
CCCCATGA: 0.046
GGCAAAAA: 0.122
AAAGTCCG: 0.0341
CGGCCCCA: 0.118
GAAGATCC: -0.0937
GACTGCAC: -0.0985
CGGCAGAG: 0.0645
AATCGCAC: 0.0422
AGGTTAGG: -0.129
CCGAACGA: 0.105
AAGAGGGA: -0.0508
CTCACTCA: 0.0554
AGTACCGA: -0.0688
ATTGGCGG: 0.133

Series 3
Target: Interferon regulatory factor 5, full length, phosphomimetic (IRF5, Homo sapiens, UniProt Q13568-2, residues 1-514, K96S/S451D/S453D/S456D/S462D)
Technique: protein-binding microarray
Form: double-stranded DNA, one strand shown
Matrix: in vitro
Tested at: 250 nM
Setting: 60-bp whole probe
Added: salmon DNA 0.4 mg/ml
Reference: random background probes
Direction: higher = stronger binding
Measurement: log fluorescence
Shared flanks, not repeated: GCCTAGCAC … GTCTTGATTCGCTTGACGCTGCTG
GAAGGTCTCGGTTTCGGGACGTGCTAG: 3.3 z-score
TTATGTATCCTACTGCTTTAGTGCTAG: 0.36 z-score
ATTGCTTCCTCTTTCACTGGGTGCTAG: 2.43 z-score
GACGACTTCGGGTTTCGAGACGTGCTA: 1.45 z-score
TCACTTCTCAATTAAAAACTGTGCTAG: 0.74 z-score
TCACTCCTCTCTCTTTCACTGTGCTAG: 1.79 z-score
TTAGATATCAGTCGCGATTAGTGCTAG: 1.26 z-score
TGAGATATCAGTATCGATTAGTGCTAG: 6.91 z-score
GTTTTTCTCCTATTTAAGACGTGCTAG: 1.76 z-score
GATGGTCTCCTTTTCCTGACGTGCTAG: 0.0192 z-score
TTAGGTCTCGGTTTCGGTTGGTGCTAG: 8.24 z-score
TTAGATATCGGGACTGGATTCGTGCTA: 0.975 z-score
GACGGTATCGGGTTACGGGACGTGCTA: 2.87 z-score
TTAGGACTGGACTTTCGGTCAGTGCTA: 8.99 z-score
TCATTTCTCCTATTTAAACTGTGCTAG: 1.71 z-score
GAGGGTATCGACACTGGGGACGTGCTA: 0.874 z-score
GACGAACTGAGTCGCGAGACGTGCTAG: -0.341 z-score
TTAGGTGTCGGTATCGGTTAGTGCTAG: 5.1 z-score
GACGGTTTCGGGTTTCGGGAGGTGCTA: 8.01 z-score
TCAGTTTTTGCTTTCCTACTGTGCTAG: 1.9 z-score
CTTCCTCTTTCACTGGTCCTGTGCTAG: 2.83 z-score
GTCGGACTGGGACTGGGGACGTGCTAG: -0.494 z-score
GACGATTGCAGTCTCGAGACGTGCTAG: 0.152 z-score

Series 4
Target: CCNB1, cyclin fold, Cln2 fusion (human)
Technique: yeast growth competition, sequencing
Matrix: yeast
Setting: weak parent motif
Reference: not given
Direction: higher = stronger binding
Measurement: normalised enrichment score
Starting sequence: SCAPER docking peptide (human); SNARRSLNFGGST
SNARRSENFGGST [L7E]: 0.132
SMARRSLNFGGST [N2M]: -0.406
SNAVRSLNFGGST [R4V]: 0.866
SNARRSLNFPGST [G10P]: 0.652
SNARRSFNFGGST [L7F]: 0.105
ANARRSLNFGGST [S1A]: 0.956
QNARRSLNFGGST [S1Q]: 0.432
SNARRSLNFGGSF [T13F]: 0.451
RNARRSLNFGGST [S1R]: 0.0587
SNARRSANFGGST [L7A]: 1.11
SNARRSLNFGGFT [S12F]: 0.00736
SNARTSLNFGGST [R5T]: 0.252
SNARRSLAFGGST [N8A]: 0.0827
SNARRSLNQGGST [F9Q]: 0.37
SNARRSQNFGGST [L7Q]: 0.997
SNARRSLNFGMST [G11M]: 0.305
SNARLSLNFGGST [R5L]: 0.195
SNARRSLNFGGSL [T13L]: 0.991
SNARRSLNRGGST [F9R]: 0.828
